# Published values collected from several papers.
# Every numbered part comes from another study and shows a few of its results, in no order.

# Series 1 — method: protein-binding microarray; form: double-stranded DNA, one strand shown; matrix: in vitro; tested at: not given; direction: higher = stronger binding
# Target: Protein max, full length (MAX, Homo sapiens, UniProt P61244-2, residues 1-151)
# Notes: k-mer, scored over probes, only values ≥0.25
Oligonucleotide,E-score
GCCCCTCC,0.295
AGGCGTGC,0.363
ACGGGTCA,0.252
GCCCACGC,0.439

# Series 2 — method: protein-binding microarray; form: double-stranded DNA, one strand shown; matrix: in vitro; tested at: 940 nM top; notes: 60-bp whole probe; with: salmon DNA 0.4 mg/ml; baseline: random background probes; direction: higher = stronger binding; constant ends, left off below: GCCTAGCAC … GTCTTGATTCGCTTGACGCTGCTG
# Target: Interferon regulatory factor 5, full length, phosphomimetic (IRF5, Homo sapiens, UniProt Q13568-2, residues 1-514, S451D/S453D/S456D/S462D)
Oligonucleotide,fitted relative affinity [z-score]
GAAAATCCCACATTTGATAAAGTGCTA,0.436
GAGGGTATCGACTTTCGGGACGTGCTA,2.94
TCAGATATCAGTCTCGATTAGTGCTAG,3.15
TTAGGGCTCGGACTGGGTTAGTGCTAG,-0.605
TTGCTTCTATAGGCTAGAATCGTGCTA,-0.636
TTAGGTTTCGGGTCTCGGTTAGTGCTA,10.1

# Series 3 — method: RNA Bind-n-Seq; form: RNA; matrix: in vitro; tested at: not given; baseline: input RNA pool; direction: higher = stronger binding
# Target: RING finger protein unkempt homolog, zinc fingers 1-6, GST-SBP tag (UNK, Homo sapiens, UniProt Q9C0B0, residues 30-357)
# Chain of UniProt Q9C0B0 (30-357, looked up): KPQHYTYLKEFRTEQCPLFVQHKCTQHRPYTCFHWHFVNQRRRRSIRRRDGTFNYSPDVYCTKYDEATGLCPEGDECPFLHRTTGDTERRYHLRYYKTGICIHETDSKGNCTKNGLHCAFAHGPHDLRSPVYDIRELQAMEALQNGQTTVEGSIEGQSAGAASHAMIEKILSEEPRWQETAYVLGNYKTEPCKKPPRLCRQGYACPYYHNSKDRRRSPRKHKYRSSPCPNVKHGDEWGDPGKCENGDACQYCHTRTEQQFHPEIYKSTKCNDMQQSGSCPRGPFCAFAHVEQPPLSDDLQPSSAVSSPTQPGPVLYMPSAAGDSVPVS
# Notes: RNA with constant flanks, human and mouse sites, ends assumed
Oligonucleotide,bound/input enrichment
GGGAGUUCUACAGUCCGACGAUCAAUGAGAUGAUGCAAAAUGAAGAAAAAUAUGAAAAAAUCUUAAAGGCAUUGAACAGUCGUCGUAUUAUUCCCAGACCAUUUGUAGCUCAAAAACUUGCAUCAAGUGAUGACUUUAUAUCUCAACAGAGGAUUGAGCAUCA,0.238 ratio
GGGAGUUCUACAGUCCGACGAUCUUUAUUUUGCACAUUAUGCAAAAGGAAGAAUAUUAGAAACACUUUUUUUUAAGUGAGUGAAAGUAUGGUAAGACGGUUAGUGCUUUGUGCACUUCUUAGACUAAUCAAGGUCAUCCAUCGCAACAGAGGAUUGAGCAUCA,1.07 ratio
GGGAGUUCUACAGUCCGACGAUCUUGGAUGGCCUGUCAUGUAUUCUCAACUUUCUGAAGACCAUGGACUAUGAGACCUCUGAGUCUCGGAUACACACCUCCCUCAUUGGCUGUAUAAAGGCACUAAUGAACAACUCUCAAGGCCAACAGAGGAUUGAGCAUCA,0.205 ratio

# Single results of other studies
Substance,target,test,test system,conditions,scale,quantity,result
"PhoQ, residues 284 288 289 292 302 303 ASSHFY","PhoP, residues 12 14 15 18 19 NQAHL (Escherichia coli, UniProt P23836)","Sort-seq, measured: YFP reporter",E. coli,"PhoQ-PhoP variant library, with: 10 µM Mg2+","baseline: high Mg2+ state, higher = stronger signaling",fold induction,1.8

# Some of these lines once more (series 1):
Oligonucleotide,E-score
ACGGGTCA,0.252
GCCCCTCC,0.295
